Measurements pooled from the literature.
Parts stem from different laboratories: compare values within a part only. “And” joins repeats or separate records; there may be more than shown. Positions count from the first letter of the parent shown.

Study 1
Target: CCNE1, cyclin fold, Cln2 fusion (human)
Method: yeast growth competition, sequencing
Medium: yeast
Setting: strong parent motif
Baseline: not given
Direction: higher = stronger binding
Starting sequence: viral docking peptide; PTARRRLLHDLDT; partner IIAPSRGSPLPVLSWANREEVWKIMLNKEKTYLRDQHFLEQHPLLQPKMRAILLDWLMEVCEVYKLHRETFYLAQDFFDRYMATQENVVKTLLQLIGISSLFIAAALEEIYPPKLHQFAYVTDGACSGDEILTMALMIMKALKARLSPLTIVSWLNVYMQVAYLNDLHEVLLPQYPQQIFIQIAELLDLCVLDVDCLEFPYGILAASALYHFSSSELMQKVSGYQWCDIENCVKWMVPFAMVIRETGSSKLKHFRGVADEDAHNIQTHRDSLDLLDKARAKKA
`L11A`: “normalised enrichment score” 0.691.
Under “normalised enrichment score”, `L8A` is recorded as -0.4.
`R5K`: “normalised enrichment score” 0.0853.
`L7A`: “normalised enrichment score” -0.191.
`L8F` — result for “normalised enrichment score”: 6.78.
For `R6A`, “normalised enrichment score” read 1.14.
For `R5K L8F`, “normalised enrichment score” read 3.85.
For `T13A`, “normalised enrichment score” read 1.12.

Study 2
Target: vanadate, free oxyanion
Method: microfluidic competitive inhibition
Medium: in vitro, cell-free expressed
Concentration: not given
Setting: derived from inhibition constants, unchanged parent 676 nM
Direction: lower = stronger binding
Starting sequence: PafA, mature enzyme, eGFP fusion (Elizabethkingia meningoseptica, UniProt Q9KJX5); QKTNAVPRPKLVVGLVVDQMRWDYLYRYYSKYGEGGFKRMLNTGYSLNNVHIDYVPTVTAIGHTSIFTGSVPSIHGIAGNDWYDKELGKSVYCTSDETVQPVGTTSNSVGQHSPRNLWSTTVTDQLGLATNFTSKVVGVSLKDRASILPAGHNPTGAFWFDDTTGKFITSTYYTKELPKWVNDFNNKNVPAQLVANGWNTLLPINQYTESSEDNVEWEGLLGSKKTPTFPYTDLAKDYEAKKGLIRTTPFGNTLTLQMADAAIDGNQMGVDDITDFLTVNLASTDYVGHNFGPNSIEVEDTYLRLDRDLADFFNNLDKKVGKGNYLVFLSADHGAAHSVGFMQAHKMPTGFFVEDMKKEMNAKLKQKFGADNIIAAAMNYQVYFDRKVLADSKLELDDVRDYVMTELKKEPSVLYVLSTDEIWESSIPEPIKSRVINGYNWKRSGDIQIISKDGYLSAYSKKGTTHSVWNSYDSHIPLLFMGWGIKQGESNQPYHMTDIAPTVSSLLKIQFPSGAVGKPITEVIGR
For `A259V`, “oxyanion analog dissociation constant” read 1.09 µM.
`T163G`: “oxyanion analog dissociation constant” 0.418 µM.
`D264V` — result for “oxyanion analog dissociation constant”: 0.65 µM.
Under “oxyanion analog dissociation constant”, `K179V` is recorded as 0.646 µM.
`W483V`: “oxyanion analog dissociation constant” 0.681 µM.
For `D275G`, “oxyanion analog dissociation constant” read 0.94 µM.
Under “oxyanion analog dissociation constant”, `L303V` is recorded as 0.638 µM.
For `L417V`, “oxyanion analog dissociation constant” read 0.872 µM.

Study 3
Substance: meglumine antimoniate
Organism: Leishmania infantum chagasi
Method: qPCR
Species: golden hamster chronic infection
Route: intraperitoneal
Dose: 50 mg/kg/day
Time: 10 days
For refers to: IL-17 mRNA; liver: threshold cycle read 35.9 cycles and 34 cycles and 33.3 cycles and 33.4 cycles and 35.4 cycles.
It gave 29.4 cycles and 30.9 cycles and 31.6 cycles and 31.8 cycles and 31.9 cycles and 31.2 cycles for threshold cycle (refers to: IL10 mRNA; liver).
The threshold cycle was 33.4 cycles and 30.5 cycles and 34.6 cycles and 35.9 cycles and 31.6 cycles (refers to: IL-17 mRNA; spleen).
For refers to: IL10 mRNA; spleen: threshold cycle read 26.7 cycles and 29.9 cycles and 30.3 cycles and 29.1 cycles and 30.6 cycles and 27 cycles.
For refers to: IL4 mRNA; liver: threshold cycle read 33.7 cycles and 33.6 cycles and 34.9 cycles and 31.9 cycles and 34 cycles and 34.7 cycles.

Single results of other studies
The viability of Nc1nc(Cl)nc2c1ncn2[C@@H]1O[C@H](CO)[C@@H](O)[C@@H]1F is reported as 82.8% (HEK-293T/ACE2; concentration not given, 16 (unit not given); baseline: vehicle).
